Assay results of several laboratories.
Each line is one published result; not all experiments were run side by side. Numbers after ± are the reported error.
Lethal factor: Lethal factor (Bacillus anthracis, UniProt P15917)
Botulinum neurotoxin type A protease: Botulinum neurotoxin type A, protease (Clostridium botulinum, UniProt P0DPI0)
OPG122: mRNA-decapping protein OPG122 (OPG122, Vaccinia virus, UniProt P04312)
rep papain-like protease: Replicase polyprotein 1ab, papain-like protease (rep, Severe acute respiratory syndrome coronavirus 2, UniProt P0DTD1)

Compound | target | assay | test system | conditions | Ki [nM]
CC[C@H](C)[C@@H]1NC(=O)[C@@H]2CSSC[C@H](NC(=O)[C@H](CCCNC(=N)N)NC(=O)[C@@H]3CSSC[C@H](NC1=O)C(=O)N[C@@H]([C@@H](C)O)C(=O)N[C@@H](CCCNC(=N)N)C(=O)NCC(=O)N[C@@H](Cc1ccccc1)C(=O)N3)C(=O)N1CCC[C@H]1C(=O)N[C@H]1CSSC[C@H](NC(=O)CNC(=O)[C@H](Cc3ccc(O)cc3)NC(=O)[C@H](CCCNC(=N)N)NC(=O)[C@H](CO)NC1=O)C(=O)N[C@@H](Cc1c[nH]c3ccccc13)C(=O)N2 | Lethal factor |  |  |  | 946 ± 58
CSCC[C@H](NC(=O)[C@H](CCCCN)NC(=O)[C@@H](NC(=O)[C@H](C)NC(=O)[C@H](CCCNC(=N)N)NC(=O)[C@H](Cc1ccccc1)NC(C)=O)[C@@H](C)O)C(=O)N[C@@H](CC(C)C)C(N)=O | Botulinum neurotoxin type A protease | enzyme activity, inhibitor |  |  | > 200000
Cc1cc([N+](=O)[O-])ccc1NC(=O)C(Br)C(Br)C(=O)O (stereo not drawn) | Replicase polyprotein 1ab, main protease (rep, Severe acute respiratory syndrome-related coronavirus, UniProt P0C6X7) | enzyme activity, inhibitor |  |  | 13000
Nc1nc2c(ncn2C2OC(COP(=O)(O)OP(=O)(O)OP(=O)(O)O)C(O)C2O)c(=O)[nH]1 (stereo not drawn) | OPG122 |  |  |  | 90
CSCC[C@H](NC(=O)[C@H](CCN)NC(=O)[C@@H](NC(=O)[C@H](Cc1c[nH]c2ccccc12)NC(=O)[C@H](CCCNC(=N)N)NC(=O)[C@@H](N)CCNc1ccc([N+](=O)[O-])cc1[N+](=O)[O-])[C@@H](C)O)C(=O)N[C@@H](CC(C)C)C(N)=O | Botulinum neurotoxin type A protease | enzyme activity, inhibitor |  |  | 41
CCC[C@H](NC(=O)[C@H](CC(C)C)NC(=O)OCc1ccccc1)C(=O)C(=O)NCc1ccccn1 | Replicase polyprotein 1ab, main protease (rep, Middle East respiratory syndrome-related coronavirus, UniProt K9N7C7) | enzyme activity, inhibitor |  |  | 1320
Nc1ncnc2c1ncn2C1CC(O)C(COP(=O)(O)OP(=O)(O)OP(=O)(O)O)O1 (stereo not drawn) | OPG122 |  |  |  | 510
Cc1ccc(OCCN(C)C)cc1C(=O)N[C@H](C)c1cc(-c2cnn(CCN3CCOCC3)c2)cc(-c2ccn(C)n2)c1 | rep papain-like protease | enzyme activity, inhibitor, FRET |  |  | 46.9
Nc1ncnc2c1ncn2C1CCC(COP(=O)(O)OP(=O)(O)OP(=O)(O)O)O1 (stereo not drawn) | OPG122 |  |  |  | 660
O=C(NCCOC(=O)[C@@H]1CCCCN1S(=O)(=O)Cc1ccccc1)c1cccnc1 | Peptidyl-prolyl cis-trans isomerase (Burkholderia pseudomallei, UniProt Q63J95) | enzyme activity, inhibitor |  |  | 290
CSCC[C@H](NC(=O)[C@H](CCCCN)NC(=O)[C@@H](NC(=O)[C@H](C)NC(=O)[C@H](CCCNC(=N)N)NC(=O)[C@H](N)Cc1ccccc1)[C@@H](C)O)C(=O)N[C@@H](CC(C)C)C(N)=O | Botulinum neurotoxin type A protease | enzyme activity, inhibitor |  |  | > 200000
CC(C)COC(=O)N[C@@H](CC(C)C)C(=O)CCl | Replicase polyprotein 1ab, main protease (rep, Severe acute respiratory syndrome-related coronavirus, UniProt P0C6X7) | enzyme activity, inhibitor |  |  | 105000
CC[C@H](C)[C@@H]1NC(=O)[C@@H](NC(=O)[C@H](CO)NC(=O)[C@@H](N)CCCNC(=N)N)CSSC[C@@H](C(=O)O)NC(=O)[C@H]([C@@H](C)O)NC(=O)CNC(=O)[C@@H]2CSSC[C@@H]3NC(=O)[C@H](CCC(N)=O)NC(=O)[C@H](Cc4ccccc4)NC(=O)[C@H](C)NC(=O)[C@H]([C@@H](C)O)NC(=O)[C@H](CSSC[C@H](NC(=O)[C@H](Cc4ccccc4)NC(=O)[C@H](CO)NC(=O)[C@H](CC(C)C)NC(=O)[C@H](CCCNC(=N)N)NC(=O)[C@H](Cc4ccc(O)cc4)NC(=O)[C@H](CC(N)=O)NC(=O)[C@H](CCSC)NC(=O)[C@H](CO)NC(=O)[C@H](Cc4c[nH]cn4)NC(=O)[C@H](CCCCN)NC3=O)C(=O)N[C@@H](CCCNC(=N)N)C(=O)N[C@@H](CCCCN)C(=O)N[C@@H]([C@@H](C)O)C(=O)N2)NC(=O)[C@H](CCCNC(=N)N)NC(=O)[C@H](CO)NC(=O)[C@H](CCCCN)NC(=O)[C@@H]2CCCN2C(=O)[C@H]([C@@H](C)CC)NC(=O)[C@H]([C@@H](C)O)NC(=O)[C@H](CC(=O)O)NC1=O | Potassium voltage-gated channel subfamily A member 3 (KCNA3, Homo sapiens, UniProt P22001) | potassium current, inhibitor, two-electrode voltage clamp | Xenopus oocytes |  | 1.2 ± 0.1
CC(C)C[C@H](NC(=O)[C@@H](CCCNC(=N)N)NC(=O)[C@@H](CCCNC(=N)N)NC(=O)[C@@H](CCCNC(=N)N)NC(=O)[C@@H](CCCNC(=N)N)NC(=O)[C@@H](CCCNC(=N)N)NC(=O)[C@@H](CCCNC(=N)N)NC(=O)[C@@H](CCCNC(=N)N)NC(=O)[C@@H](CCCNC(=N)N)NC(=O)[C@H](N)CCCNC(=N)N)C(=O)N1CCC[C@H]1C(=O)N[C@@H](Cc1ccc(O)cc1)C(=O)NO | Lethal factor | enzyme activity, inhibitor |  |  | 7.32
CSc1nc(N)nc2c1ncn2C1OC(COP(=O)(O)OP(=O)(O)OP(=O)(O)O)C(O)C1O (stereo not drawn) | OPG122 |  |  |  | > 800
CCCCCc1ccc(Oc2ccccc2)c(O)c1 | Enoyl-[acyl-carrier-protein] reductase [NADH] (Francisella tularensis subsp. tularensis, UniProt Q5NGQ3) | inhibitor |  | second step, K2 | 525 ± 8
Nc1ncnc2c1ncn2C1OC(COP(=O)(O)OP(=O)(O)O)C(O)C1O (stereo not drawn) | OPG122 |  |  |  | 750
Cc1ccc(OCCN(C)C)cc1C(=O)N[C@H](C)c1cc(-c2cnn(CF)c2)cc(-c2ccn(C)n2)c1 | rep papain-like protease | enzyme activity, inhibitor, FRET |  |  | 34
Nc1nc2c(ncn2C2OC(COP(=O)(O)OP(=O)(O)O)C(O)C2O)c(=O)[nH]1 (stereo not drawn) | OPG122 |  |  |  | 680
NC1=NN=Cc2ccccc2[O][V](=[O])[O]1.c1cnc2c(c1)ccc1cccnc12 | Tyrosine-protein phosphatase YopH (Yersinia enterocolitica, UniProt P15273) | enzyme activity, inhibitor |  |  | 20
CSCC[C@H](NC(=O)[C@H](CCCCN)NC(=O)[C@@H](NC(=O)[C@H](C)NC(=O)[C@H](CCCNC(=N)N)NC(=O)[C@@H](N)CCNc1ccc([N+](=O)[O-])cc1[N+](=O)[O-])[C@@H](C)O)C(=O)N[C@@H](CC(C)C)C(N)=O | Botulinum neurotoxin type A protease | enzyme activity, inhibitor |  |  | 980
CC(C)C[C@H](NC(=O)[C@@H](NC(=O)[C@@H](CCCNC(=N)N)NC(=O)[C@@H](CCCNC(=N)N)NC(=O)[C@@H](CCCNC(=N)N)NC(=O)[C@@H](CCCNC(=N)N)NC(=O)[C@@H](CCCNC(=N)N)NC(=O)[C@@H](CCCNC(=N)N)NC(=O)[C@@H](CCCNC(=N)N)NC(=O)[C@@H](CCCNC(=N)N)NC(=O)[C@H](N)CCCNC(=N)N)C(C)C)C(=O)N[C@@H](CCCNC(=N)N)C(=O)NO | Lethal factor | enzyme activity, inhibitor |  |  | 1.45
Cn1cnc2c(ncn2C2OC(COP(=O)(O)OP(=O)(O)OP(=O)(O)O)C(O)C2O)c1=N (stereo not drawn) | OPG122 |  |  |  | 700
Cc1ccc(OCCN(C)C)cc1C(=O)N[C@H](C)c1cc(-c2cnn(C)c2)cc(-c2cnn(CCN3CCOCC3)c2)c1 | rep papain-like protease | enzyme activity, inhibitor, FRET |  |  | 29.3
